Published values gathered from unrelated publications.
Lines come from different studies, so protocols differ. Numbers after ± are the reported error.

SMILES	test	test system	conditions	tissue uptake [%ID/g]
N=C(N)NCCC[C@H](NC(=O)CON=C[C@H](F)[C@@H](O)[C@H](O)[C@H](O)CO)C(=O)NCC(=O)N[C@@H](CC(=O)O)C(=O)O [fluorine-18 labelled]		nude mice U-87 MG tumour, bone	intravenous, 2 h	0.23 ± 0.2
N=C(N)NCCC[C@@H]1NC(=O)[C@H](CCCCNC(=O)CC[C@H](NC(=O)[C@H]2O[C@@H](CNC(=O)c3ccc(F)cc3)[C@H](O)[C@@H](O)[C@H]2O)C(=O)NCCCC[C@@H]2NC(=O)[C@@H](Cc3ccc(O)cc3)NC(=O)[C@H](CC(=O)O)NC(=O)CNC(=O)[C@H](CCCNC(=N)N)NC2=O)NC(=O)[C@@H](Cc2ccc(O)cc2)NC(=O)[C@H](CC(=O)O)NC(=O)CNC1=O [fluorine-18 labelled]	small-animal PET	female athymic nude mice, U-87 MG xenograft, muscle	intravenous, 3.7 MBq, 120 min	0.18 ± 0.06
O=C([O-])CN1CCN(CC(=O)[O-])CCN(CC(=O)[O-])CCN(CC(=O)[O-])CC1.[64Cu+2]		healthy athymic nude mice, stomach	intravenous, 1 h	0.7
CN1C(=O)[C@@H](Cc2ccc(O)c(I)c2)NC(=O)CNC(=O)[C@H](Cc2ccc3ccccc3c2)NC(=O)[C@H](CCCNC(=N)N)NC(=O)[C@H]1CCCNC(=O)c1ccc(CNC(=O)CN2CCN(CC(=O)O)CCN(CC(=O)O)CCN(CC(=O)O)CC2)cc1 [lutetium-177 labelled]	refers to: 177Lu radioactivity	female CB-17 SCID mice, Daudi xenograft, liver	intravenous, 0.16 nmol per mouse, 6 h	9.59 ± 0.69
CCCC[C@H](NC(=O)CN1CCC(NC(=O)CN2CCN(CC(=O)O)CCN(CC(=O)O)CCN(CC(=O)O)CC2)CC1)C(=O)N[C@H]1CC(=O)NCCCC[C@@H](C(N)=O)NC(=O)[C@H](Cc2c[nH]c3ccccc23)NC(=O)[C@H](CCCNC(=N)N)NC(=O)[C@@H](Cc2ccccc2)NC(=O)[C@H](Cc2c[nH]cn2)NC1=O [gallium-68 labelled]		male C57BL/6J mice, B16-F10 tumours, bone	intravenous, 1 h, blocking study, together with: 100 µg non-radioactive Ga-peptide	1.1 ± 0.5
N=C(N)NCCC[C@H](NC(=O)[C@@H]1CSSC[C@H](NC(=O)[C@H](Cc2ccc3ccccc3c2)NC(=O)[C@H](CCCNC(=N)N)NC(=O)[C@H](CCCNC(=N)N)NC(=S)Nc2ccc(C[C@H]3CN(CC(=O)O)CCN(CC(=O)O)CCN3CC(=O)O)cc2)C(=O)N[C@@H](Cc2ccc(O)cc2)C(=O)N[C@@H](CCCNC(N)=O)C(=O)N[C@@H](CCCCN)C(=O)N[C@H](CCCCN)C(=O)N2CCC[C@H]2C(=O)N[C@@H](Cc2ccc(O)cc2)C(=O)N[C@@H](CCCNC(=N)N)C(=O)N[C@@H](CCCNC(N)=O)C(=O)N1)C(N)=O [copper-64 labelled]	PET	tumour-bearing mice, blood	100 µCi, 4 h	0.13 ± 0.02
CCCC[C@H](NC(=O)CNC(=O)CNC(=O)CN1CCN(CC(=O)O)CCN(CC(=O)O)CC1)C(=O)N[C@H]1CC(=O)NCCCC[C@@H](C(N)=O)NC(=O)[C@H](Cc2c[nH]c3ccccc23)NC(=O)[C@H](CCCNC(=N)N)NC(=O)[C@@H](Cc2ccccc2)NC(=O)[C@H](Cc2c[nH]cn2)NC1=O [gallium-67 labelled]		female C57 mice, B16/F1 melanoma, bone	intravenous, 0.037 MBq, 4 h	0.96 ± 0.87
CCCC[C@@H]1NC(=O)[C@@H](NC(=O)[C@H](CCC(=O)O)NC(=O)CNC(=O)CN2CCN(CC(=O)O)CCN(CC(=O)O)CCN(CC(=O)O)CC2)CCCCNC(=O)C[C@@H](C(N)=O)NC(=O)[C@H](C(C)C)NC(=O)[C@@H]2CCCN2C(=O)[C@H](CCCNC(=N)N)NC(=O)CNC(=O)[C@H](Cc2c[nH]c3ccccc23)NC(=O)[C@H](CCCNC(=N)N)NC(=O)[C@@H](Cc2ccccc2)NC(=O)[C@H](Cc2c[nH]cn2)NC(=O)[C@H](CCC(=O)O)NC1=O [gallium-67 labelled]		C57 mice, B16/F10 lung metastases, stomach	intravenous, 0.037 MBq/mouse, 2 h	0.19 ± 0.03
O=C([O-])CN1CCN(CC(=O)[O-])CC(Cc2ccc(NC(=S)NCCOCCOCCOCCOCCOCCOCCOCCNC(=O)CCCC(=O)NCc3ccc(-c4nncnn4)cc3)cc2)N(CC(=O)[O-])CC1.[64Cu+2] (stereo not shown)	biodistribution	healthy athymic nude mice, kidneys	1 h p.i.	1.5 ± 0.2
CC(F)C(=O)NC[C@@H]1O[C@H](C(=O)NCCCC[C@@H]2NC(=O)[C@@H](Cc3ccccc3)NC(=O)[C@H](CC(=O)O)NC(=O)CNC(=O)[C@H](CCCNC(=N)N)NC2=O)[C@H](O)[C@H](O)[C@H]1O (stereo partly shown) [fluorine-18 labelled]	small-animal PET	female athymic nude mice, U-87 MG xenograft, muscle	intravenous, 3.7 MBq, 120 min	0.05 ± 0.01
